Assay results of several laboratories.
± gives the spread as reported.
UniProt Q3TKT4, sequence (whole entry, looked up): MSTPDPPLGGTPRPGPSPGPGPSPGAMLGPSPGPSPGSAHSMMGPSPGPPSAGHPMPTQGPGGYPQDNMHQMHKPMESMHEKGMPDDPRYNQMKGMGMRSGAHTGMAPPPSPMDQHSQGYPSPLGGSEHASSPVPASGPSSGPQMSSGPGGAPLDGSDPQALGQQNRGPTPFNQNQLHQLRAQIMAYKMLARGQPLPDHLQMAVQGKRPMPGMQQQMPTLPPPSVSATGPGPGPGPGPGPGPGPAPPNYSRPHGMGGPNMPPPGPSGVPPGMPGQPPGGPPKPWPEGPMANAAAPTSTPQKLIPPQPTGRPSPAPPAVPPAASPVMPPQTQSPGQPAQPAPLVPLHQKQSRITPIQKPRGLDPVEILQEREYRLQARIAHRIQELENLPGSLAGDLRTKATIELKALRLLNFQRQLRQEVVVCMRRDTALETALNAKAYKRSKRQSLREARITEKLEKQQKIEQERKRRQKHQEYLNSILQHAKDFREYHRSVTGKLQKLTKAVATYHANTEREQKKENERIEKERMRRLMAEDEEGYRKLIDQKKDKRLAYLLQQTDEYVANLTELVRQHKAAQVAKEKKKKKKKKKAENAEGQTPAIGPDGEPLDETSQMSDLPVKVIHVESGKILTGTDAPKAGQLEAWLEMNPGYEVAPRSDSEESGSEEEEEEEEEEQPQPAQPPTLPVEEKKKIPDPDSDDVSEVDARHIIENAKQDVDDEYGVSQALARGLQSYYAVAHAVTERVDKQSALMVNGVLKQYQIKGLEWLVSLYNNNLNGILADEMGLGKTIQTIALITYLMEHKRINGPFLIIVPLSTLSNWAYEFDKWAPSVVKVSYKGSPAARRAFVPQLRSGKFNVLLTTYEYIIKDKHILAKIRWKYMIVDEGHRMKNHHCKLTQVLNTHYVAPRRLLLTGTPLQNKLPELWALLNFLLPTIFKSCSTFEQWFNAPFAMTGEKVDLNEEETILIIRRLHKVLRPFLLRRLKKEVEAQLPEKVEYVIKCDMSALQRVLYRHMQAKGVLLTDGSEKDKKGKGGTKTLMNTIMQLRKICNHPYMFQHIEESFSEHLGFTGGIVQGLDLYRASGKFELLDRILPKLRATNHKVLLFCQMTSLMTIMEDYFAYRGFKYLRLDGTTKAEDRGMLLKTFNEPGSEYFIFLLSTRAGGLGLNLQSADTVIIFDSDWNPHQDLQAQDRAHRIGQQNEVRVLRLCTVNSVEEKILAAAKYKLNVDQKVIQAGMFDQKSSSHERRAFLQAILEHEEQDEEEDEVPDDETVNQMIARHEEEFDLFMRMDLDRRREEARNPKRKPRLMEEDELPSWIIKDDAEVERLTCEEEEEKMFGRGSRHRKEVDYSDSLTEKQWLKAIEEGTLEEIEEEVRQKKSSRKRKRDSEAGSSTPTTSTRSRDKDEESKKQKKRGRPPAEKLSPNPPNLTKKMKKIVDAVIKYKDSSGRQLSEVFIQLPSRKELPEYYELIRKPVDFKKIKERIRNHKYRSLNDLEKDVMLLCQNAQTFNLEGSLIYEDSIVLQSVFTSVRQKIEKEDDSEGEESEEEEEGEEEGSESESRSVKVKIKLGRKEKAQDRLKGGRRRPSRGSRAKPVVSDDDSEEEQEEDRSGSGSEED

AATCCGCAGTCACAGTGACTCAGCAGAATCTGAGCCTAG (dsDNA)
binding (NRF2/MAFG (Homo sapiens); competition EMSA; double-stranded DNA, one strand shown; 500 nM): binds

CGATCATGGAGCCACGAGCTCCCGTTACAG / CTGTAACGGGAGCTAGTGGCTCCATGATCG (dsDNA; blunt, 8-oxoG:2'-fluoro-arabino-A pair)
Kd (MUTYH 1-535 S524D (Homo sapiens); EMSA): 1.8 ± 0.1 nM

AAGGGGGGCTATAAAAGGGGGTGGGGGCGCGTTCGTCCTCACTCTCTTCCCCTCCATACC (dsDNA)
binding (TBP/GTF2B 1-339; 1-316 with insertion (Homo sapiens); EMSA; double-stranded DNA, one strand shown; uncleaved): binds

GGGCGUCCCUCCCGAAGCUGCGCGCUCGGUCGAAGAGGACGACC (structured RNA)
Kd (Smarca4 AT-hook (Mus musculus, UniProt Q3TKT4); EMSA; folded RNA; together with: Mg2+ 5 mM): 410 nM

For quick reference, copied from above:
CGATCATGGAGCCACGAGCTCCCGTTACAG / CTGTAACGGGAGCTAGTGGCTCCATGATCG (dsDNA; blunt, 8-oxoG:2'-fluoro-arabino-A pair)
Kd (MUTYH 1-535 S524D (Homo sapiens); EMSA): 1.8 ± 0.1 nM
